# Results collected from several papers.
# A part holds a random share of what one study measured. Changes are numbered by the printed parent chain.

# Study 1
# Target: Phosphate system positive regulatory protein PHO4, full length, GST-tagged (PHO4, Saccharomyces cerevisiae, UniProt P07270, residues 1-312)
# Technique: competition protein-binding microarray
# Form: double-stranded DNA, one strand shown
# Matrix: in vitro
# Tested at: 2 µM
# Setting: whole 60-bp probe, lowest competitor level
# Added: Cbf1 competitor, 0.05 µM
# Reading: higher = stronger binding
# Residues (chain): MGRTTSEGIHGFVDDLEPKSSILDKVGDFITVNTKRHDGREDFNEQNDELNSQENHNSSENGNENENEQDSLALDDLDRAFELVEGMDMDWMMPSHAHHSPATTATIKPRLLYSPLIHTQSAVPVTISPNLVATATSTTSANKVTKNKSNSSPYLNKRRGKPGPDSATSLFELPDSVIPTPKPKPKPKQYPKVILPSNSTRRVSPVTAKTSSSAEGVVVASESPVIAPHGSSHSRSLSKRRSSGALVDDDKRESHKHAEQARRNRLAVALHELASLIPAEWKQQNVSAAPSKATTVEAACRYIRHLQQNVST
Strand,fluorescence intensity
GTCTTGTCTCATTGCCAAGTGGGTGTCCCCACTTCAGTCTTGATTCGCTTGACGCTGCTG,4730 a.u.
AGTATATCTGATCCGCACGTGATGGCCACTTAATCGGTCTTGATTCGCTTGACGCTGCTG,15900 a.u.
ATGCCCTGCTATCTTCACGTGGTCGAATAGCTTATTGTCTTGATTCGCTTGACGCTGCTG,17100 a.u.
TACAAGACTCCGAGTCACATGAAACCACACCTTCGGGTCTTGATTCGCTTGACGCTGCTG,4960 a.u.
TGCGCAACAACTTTTCACGTGTATTTATGTCTAGAAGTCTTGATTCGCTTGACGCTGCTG,13700 a.u.
AAATTACTAAGTTGGTCTGTGGGTGACGCCGTATGAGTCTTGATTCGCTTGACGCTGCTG,3760 a.u.
GTCCTTTGCCTCTACCTCGTGCTTTCTCTTGCCATGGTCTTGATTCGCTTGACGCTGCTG,11100 a.u.
AAATTACTAAGTTGATTTGTGGGTGACGCCGTATGAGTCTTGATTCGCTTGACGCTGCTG,3790 a.u.

# Study 2
# Target: Prothrombin, mature alpha-thrombin (F2, Homo sapiens, UniProt P00734)
# Technique: aptamer microarray, sandwich
# Form: DNA with 2'F-ANA
# Matrix: in vitro
# Tested at: 200 nM
# Setting: whole 15-mer aptamer, many near background
# Added: Cy3 exosite-II aptamer, 400 nM
# Reading: higher = stronger binding
# Strand: GGTTGGTGTGGTTGG
Modification,mean fluorescence intensity [a.u.]
2'F-ANA at 1 2 14 15,53.3
2'F-ANA at 5 6 9 11 12,123
2'F-ANA at 3 4 5 6 10,53.3
2'F-ANA at 5 6 8 9 11,70.8
2'F-ANA at 1 2 4 5 6 8 9 15,64.1
2'F-ANA at 5 7 8 9 10 11 12 14 15,89.8
2'F-ANA at 3 5 6 7 8 11 12 13 14 15,69.6
2'F-ANA at 1 5 6 9 13 15,48.2

# Study 3
# Target: inorganic phosphate, free oxyanion
# Technique: microfluidic competitive inhibition
# Matrix: in vitro, cell-free expressed
# Tested at: not given
# Setting: derived from inhibition constants, unchanged parent 615000 nM
# Reading: lower = stronger binding
# Parent: PafA, mature enzyme, eGFP fusion (Elizabethkingia meningoseptica, UniProt Q9KJX5); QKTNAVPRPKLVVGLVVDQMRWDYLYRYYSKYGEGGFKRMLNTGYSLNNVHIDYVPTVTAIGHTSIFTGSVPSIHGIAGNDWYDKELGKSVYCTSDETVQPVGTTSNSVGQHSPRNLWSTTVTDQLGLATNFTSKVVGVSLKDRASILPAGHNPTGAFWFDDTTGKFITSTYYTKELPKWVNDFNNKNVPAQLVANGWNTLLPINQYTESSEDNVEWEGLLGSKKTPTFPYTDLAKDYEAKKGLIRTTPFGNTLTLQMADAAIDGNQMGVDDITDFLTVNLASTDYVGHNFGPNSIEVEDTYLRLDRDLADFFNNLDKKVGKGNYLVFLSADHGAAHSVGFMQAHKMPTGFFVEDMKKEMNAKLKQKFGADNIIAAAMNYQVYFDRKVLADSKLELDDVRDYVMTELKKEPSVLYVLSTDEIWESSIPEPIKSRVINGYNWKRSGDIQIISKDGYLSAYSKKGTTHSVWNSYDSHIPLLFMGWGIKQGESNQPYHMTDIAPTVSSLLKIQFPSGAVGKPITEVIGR
Substitution,phosphate dissociation constant [µM]
W159V,571
L256V,610
P227V,453
A145V,2640
E489V,548

# Study 4
# Target: CCNA1, cyclin fold, Cln2 fusion (human)
# Technique: yeast growth competition, sequencing
# Matrix: yeast
# Setting: weak parent motif
# Baseline: not given
# Reading: higher = stronger binding
# Parent: viral docking peptide; PGASRRLFGSSAD; partner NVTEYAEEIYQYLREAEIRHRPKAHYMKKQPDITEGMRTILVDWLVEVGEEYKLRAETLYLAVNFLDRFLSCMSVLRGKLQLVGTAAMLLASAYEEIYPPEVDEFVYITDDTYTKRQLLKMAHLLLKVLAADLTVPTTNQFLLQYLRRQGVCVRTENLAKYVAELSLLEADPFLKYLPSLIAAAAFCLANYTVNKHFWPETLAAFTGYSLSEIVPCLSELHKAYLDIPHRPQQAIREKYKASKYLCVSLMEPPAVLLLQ
Substitution,normalised enrichment score
PGAARRLFGSSAD [S4A],0.46
PGASRRLFASSAD [G9A],0.586
AGASRRLFGSSAD [P1A],0.0497
PGASRRLFGSAAD [S11A],0.466
PGASRRLAGSSAD [F8A],0.0788
PGASKRLFGSSAD [R5K],-0.0398

# Excerpt of the above (study 2):
Modification,mean fluorescence intensity [a.u.]
2'F-ANA at 5 7 8 9 10 11 12 14 15,89.8
2'F-ANA at 5 6 9 11 12,123
2'F-ANA at 3 4 5 6 10,53.3
2'F-ANA at 1 2 4 5 6 8 9 15,64.1
